Measurements gathered from unrelated publications.
Each line is one published result; not all experiments were run side by side.
Target: Protein kinase C delta type (PRKCD, Homo sapiens, UniProt Q05655)

The remaining activity of `Nc1ncc(-c2cc(-c3cnn(CC(F)(F)F)c3)ncc2F)nc1C(=O)NC1CNCC(F)C1` (stereo not shown) is reported as 86% (enzyme activity; 1 µM; relative to: DMSO control).
With `CN1CC[C@@H](COc2cnc(C#N)cc2-c2ccn3nc(NC(=O)C4CC4)cc3c2)C1` the inhibition was -1% (enzyme activity, inhibitor; 1 µM).
`CNC(=O)C[C@H](Cc1ccc(C#N)cc1)NC(=O)c1cc(-c2ccc(CN[C@H](C)c3ccc(C)cc3)o2)ccc1Cl`: “activity vs control” 107% (enzyme activity, inhibitor; 1 µM).
The remaining binding of `C=CC(=O)N1CCCC(n2c(=O)c3ncccc3n(Cc3ccc(Oc4ccccc4)cc3)c2=O)C1` (stereo not shown) is reported as 84% (cell-free assay, competition with immobilised ligand; 1 µM).
For `COc1ccc(NC(=O)Nc2ccc3c(c2)C(=O)N(C(C)CO)CC(C)C(CN(C)Cc2ccc4c(c2)OCO4)O3)cc1` (stereo not shown), the remaining activity was 105% (kinase activity, KinaseProfiler; 0.03 µM, species human; relative to: control).
With `Cc1cnc2nc1Nc1cccc(c1)COC/C=C/COCc1cc(ccc1OCCN1CCOCC1)N2` the remaining binding was 100% (binding; 0.1 µM).
`COc1cc(Nc2nccc(-c3cnn4nc(OC)ccc34)n2)cc(C(F)(F)F)c1` has a remaining binding of 91% (binding, competition with immobilised ligand; 1 µM).
For `O=c1c(-c2ccc(Cl)c(CN3CCOCC3)c2)coc2cc(O)ccc12`, the remaining activity was 114% (enzyme activity, inhibitor; 1 µM).
With `NC(=O)C[C@H]1CCc2sc3ncnc(O[C@H]4CC[C@H](N5CCOCC5)CC4)c3c21` the inhibition was 5% (enzyme activity, inhibitor; 10 µM).
`O=C=[N][Ru-4]123([n]4c5ccc(O)cc5c5c6c(c7cc(F)c[n+]1c7c54)C(=O)NC6=O)[S+]1CC[S+]2CC[S+]3CC1` (stereo not shown) has a remaining activity of 88% (enzyme activity; 100 nM, human enzyme, together with: 10 µM ATP; relative to: untreated).
`C=CC(=O)N1Cc2nc(-c3cc(-c4cc(Cl)cnc4Cl)c(F)cc3F)n(-c3ccncn3)c2C1` gave an inhibition of 14.9% (cell-free assay; 1 µM).
For `CN1CCN(Cc2ccc(-c3ccc(CO[C@H]4CCC[C@@H]4NC(=O)c4cc(-c5cnn(C)c5)cnc4N)cc3)cc2)CC1`, the inhibition was -4% (enzyme activity, inhibitor; 0.1 µM).
With `COc1c(OCCCN2CCOCC2)ccc2c1N=C(NC(=O)c1cnc(N)nc1)N1CCN=C21` the remaining activity was 109% (kinase activity, inhibitor; 1 µM; relative to: untreated control).
